Assay results from different studies.
Numbered parts are unrelated; each lists some results of a single study. Changes are numbered by the printed parent chain.

Set 1
Target: ABI1, truncated, D143A, DHFR fusion (Arabidopsis thaliana)
Method: DHFR PCA, deep sequencing
Matrix: yeast
Setting: methotrexate growth selection, single substitutions
Together with: (+)-ABA 1.4 µM
Relative to: wild-type fitted maximum
Direction: higher = stronger binding
Starting sequence: PYL1, truncated, DHFR fusion (Arabidopsis thaliana); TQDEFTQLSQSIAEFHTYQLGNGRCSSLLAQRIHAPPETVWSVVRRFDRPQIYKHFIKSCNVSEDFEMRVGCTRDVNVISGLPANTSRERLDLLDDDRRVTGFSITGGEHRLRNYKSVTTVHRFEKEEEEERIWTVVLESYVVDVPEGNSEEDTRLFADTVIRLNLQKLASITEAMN; partner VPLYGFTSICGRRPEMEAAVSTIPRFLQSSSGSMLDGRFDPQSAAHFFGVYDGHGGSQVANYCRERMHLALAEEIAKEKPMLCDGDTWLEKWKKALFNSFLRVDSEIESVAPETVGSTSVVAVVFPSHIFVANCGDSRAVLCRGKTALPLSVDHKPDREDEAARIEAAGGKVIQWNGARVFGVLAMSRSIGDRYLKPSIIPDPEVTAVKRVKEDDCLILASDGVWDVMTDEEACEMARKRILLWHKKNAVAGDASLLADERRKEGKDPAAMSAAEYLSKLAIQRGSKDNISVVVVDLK
Variant	relative binding score [%]
E125S	66.8
A158H	5.24
V100N	-7.03
D97F	31.8
D92P	-11.6
T154V	55.4
L94H	38.7
S59R	18.7
L28F	0.7
S26Y	3.41
V136C	23.9
E64S	57.8
L112Q	1.03
T6I	41.8
R99I	-6.01
T6N	54.4
R69H	47.5

Set 2
Target: Histone acetyltransferase KAT6A, winged helix 1, GST fusion (KAT6A, Homo sapiens, UniProt Q92794, residues 1-85)
Method: protein binding microarray
Molecule type: double-stranded DNA, one strand shown
Matrix: in vitro
Tested at: not given
Setting: 8-mer, flanks averaged, mean of 2 arrays, mostly near background
Relative to: not given
Direction: higher = stronger binding
Construct (chain): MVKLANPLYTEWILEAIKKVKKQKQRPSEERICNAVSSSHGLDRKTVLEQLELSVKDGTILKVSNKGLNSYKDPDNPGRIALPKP
Strand	E-score
ACTACCAC	-0.182
CTCATGTA	0.0296
AAACTAGG	-0.085
CACACGAC	0.0431
ACCCATTC	-0.244
GGCGTTAC	0.133
CCCTTCGA	-0.0138
GGCGCCTA	0.263
AGTCTGGA	-0.149
ATCCTTGA	-0.142
GTTTGAAA	-0.133
AGCCGGCT	0.305
ACCGACTC	0.0178
ATATAAGC	-0.0514
TAGTAACA	-0.0248
CTGAAAAC	-0.0286
CCGGGAAG	0.25
ATTTTCAC	-0.0201
AAATGCTA	-0.196
AATACGAA	-0.109
ACACGACG	0.0703
CAGGCACG	0.00373
CATATCTC	-0.201

Set 3
Target: CCND1, cyclin fold, Cln2 fusion (human)
Method: yeast growth competition, sequencing
Matrix: yeast
Setting: weak parent motif
Relative to: not given
Direction: higher = stronger binding
Starting sequence: CDC25A docking peptide (human); PPHRRRLLFACSP
Variant	normalised enrichment score
L7D	-0.0372
C11R	-0.108
L7G	-0.144
F9K	0.232
R6P	0.961
P1K	0.763
H3C	0.318
L7S	-0.218
P13Q	0.353
P1R	0.284
A10H	-0.0492
L8G	0.0127
L7P	-0.216
R4C	0.401
R5W	0.437
C11F	0.554
P13Y	0.517
P1F	-0.236
R5H	0.287
S12F	0.311
F9V	-0.021
A10I	-0.297
L8V	0.0997
R4H	-0.498
H3K	-0.607

Mixed results
Molecule	target	assay	system	setting	how to read	quantity	value
PhoQ, residues 284 288 289 292 302 303 QWGLFV	PhoP, residues 12 14 15 18 19 IQFRS (Escherichia coli, UniProt P23836)	Sort-seq, refers to: YFP reporter	E. coli	PhoQ-PhoP variant library, together with: 10 µM Mg2+	relative to: high Mg2+ state, higher = stronger signaling	fold induction	2.68

Some of these lines once more (set 1):
Variant	relative binding score [%]
L94H	38.7
S59R	18.7
L28F	0.7
S26Y	3.41
V136C	23.9
E64S	57.8
L112Q	1.03
T6I	41.8
R99I	-6.01
T6N	54.4
R69H	47.5
